Measurements of several laboratories.
Compare with care: the assays were run in different laboratories. ± gives the spread as reported. Converted amounts (≈) assume the structure as drawn.

`OCc1cn(Cc2ccc(-c3noc(-c4ccc(OCC[18F])c(C(F)(F)F)c4)n3)cc2)nn1` has a tissue uptake of 0.55 ± 0.05 %ID/g (Lewis rat, female, bone; intravenous, 0.08333 h).
`O=S(=O)(c1ccccc1)N1CCCCC1` gave a recovery of 100% (phosphate-buffered saline; 24 h, pH 7.4).
`CC(O)c1nc(-c2ccc3c(c2)CC[C@H]3NC(=O)c2cnn(C)c2)no1` (stereo partly drawn): “radioactive dose excreted in urine” roughly 9.37% (human, pooled urine; oral, 20 mg; baseline: dose).
With `Oc1ccc2ccccc2c1/N=N/c1ccc(/N=N/c2ccccc2)cc1` the measured concentration was 16.1 µg/L (rat whole blood; 16.0 µg/L, 30 days, -20 °C, long-term storage).
`Cn1c(=O)oc2ccc(-c3ccc(CC(C#N)NC(=O)C4CNCCCO4)c(F)c3)cc21` (stereo not drawn) has an acne incidence of 11.1% (human; oral, 20 mg once daily, TEAE, multiple ascending dose).
`CCCC[C@H](NC(=O)CNC(=O)CNC(=O)CN1CCN(CC(=O)O)CCN(CC(=O)O)CCN(CC(=O)O)CC1)C(=O)N[C@H]1CC(=O)NCCCC[C@@H](C(N)=O)NC(=O)[C@H](Cc2c[nH]c3ccccc23)NC(=O)[C@H](CCCNC(=N)N)NC(=O)[C@@H](Cc2ccccc2)NC(=O)[C@H](Cc2c[nH]cn2)NC1=O` [lead-203 labelled] has a tissue uptake of 0.55 ± 0.16 %ID/g (C57 mouse, stomach; intravenous, 0.056 MBq, 2 h).
For `COC(=O)CCC(=O)Oc1ccc(/C=C/C(=O)CC(=O)/C=C/c2ccc(O)c(OC)c2)cc1OC`, the cumulative release was 89.5% (dialysis release; PBS with 10% Tween-80; 24 h, 37 °C).
`Cc1ccc(OCC(=O)O)cc1` has an AUC(0-last) ratio of 979 (Sprague-Dawley rat, female, plasma; oral gavage, 10 mg/kg of parent drug; baseline: compound over parent drug).
The uptake ratio of `COc1ccc(Nc2nc(Nc3ccc(OCCOCC[18F])cc3)ncc2Br)cc1` is reported as 1.55 (ICR mice, S180 tumour; intravenous, 370 kBq, 30 min; baseline: tumour over bone).
With `CC(NC(=O)OC1OC(C(=O)O)C(O)C(O)C1O)c1cc(Cl)ccc1Cn1c(=S)[nH]c(=O)c2[nH]ccc21` (stereo not drawn) the fraction unbound was 18.4 ± 0.93% (equilibrium dialysis; male Han Wistar rats, plasma; 1 µM, 16 h, 37 °C).
`CCC(=O)N(C)c1ccc(Cl)c(Cl)c1` has a turnover of 24.2% (human liver S9 cofactor-fortified; 10 µM, 1 h, pH 7.4; baseline: boiled S9).
With `O=C([O-])CN1CCN(CC(=O)[O-])CCN(CC(=O)NCC2CCC(C(=O)NC(Cc3ccc4ccccc4c3)C(=O)NCCCCC(NC(=O)NC(CCC(=O)O)C(=O)O)C(=O)O)CC2)CCN(CC(=O)[O-])CC1.[44Sc+3]` (stereo not drawn) the absorbed dose was 0.075 mSv/MBq (PET/CT, OLINDA/EXM; human patients, salivary glands; mean of patients).
`CC(=O)N[C@H](CC(=O)O)C(=O)N[C@H](Cc1c[nH]c2ccccc12)C(=O)N[C@H](Cc1ccccc1)C(=O)N[C@H](CCCCN)C(=O)N[C@H](C)C(=O)N[C@H](Cc1ccccc1)C(=O)N[C@H](Cc1ccc(O)cc1)C(=O)N[C@H](CC(=O)O)C(=O)N[C@H](CCCCN)C(=O)N[C@@H](C(=O)N[C@H](C)C(=O)N[C@H](CCC(=O)O)C(=O)N[C@H](CCCCN)C(=O)N[C@H](Cc1ccccc1)C(=O)N[C@H](CCCCN)C(=O)N[C@H](CCC(=O)O)C(=O)N[C@H](C)C(=O)N[C@H](Cc1ccccc1)C(N)=O)C(C)C` has a Cmax of 49.1 ng/mL (statin-treated high-risk CHD women, plasma; oral, 500 mg daily, day 13, 0 to 8 h, mean, outlier excluded).
`COc1ccc2cc(-c3ccc(-c4ccc(C)cn4)nc3)oc2c1` — result for “radiative decay rate constant”: 0.55 ns⁻¹ (TCSPC; toluene).
`C=C(c1ccc(C(=O)O)c(F)c1)c1cc2c(cc1C)C(C)(C)C=CC2(C)C` has a blood triglycerides of 33 ± 1.7 mg/dL (Sprague-Dawley rat, male; oral, 100 mg/kg, 1 h, sesame oil vehicle).
`O=C1C2=C(CCN(Cc3ccccc3)C2)N2CCN=C2N1Cc1ccc(C(F)(F)F)cc1` gave an apparent clearance of 396 mL/min/kg (microsomal stability; human liver microsomes).
The tissue uptake of `O=C([O-])CN1CCN(CC(=O)[O-])CCN(CC(=O)NCCc2ccc3c(c2)C2C=CCC2C(c2cc4c(cc2Br)OCO4)N3)CCN(CC(=O)[O-])CC1.[111In+3]` (stereo not drawn) is reported as 0.16 ± 0.08 %ID/g (mouse, Hec50 endometrial tumour, brain; 1 h post injection).
The urinary excretion of `CCCC[C@H](NC(=O)CNC(=O)CNC(=O)CN1CCN(CC(=O)O)CCN(CC(=O)O)CCN(CC(=O)O)CC1)C(=O)N[C@H]1CC(=O)NCCCC[C@@H](C(N)=O)NC(=O)[C@H](Cc2c[nH]c3ccccc23)NC(=O)[C@H](CCCNC(=N)N)NC(=O)[C@@H](Cc2ccccc2)NC(=O)[C@H](Cc2c[nH]cn2)NC1=O` [gallium-67 labelled] is reported as 87.8 ± 1.44% (C57 mice, female, B16/F1 melanoma, urine; intravenous, 0.037 MBq, 4 h).
`N=C(N)NCCC[C@H](NC(=O)[C@@H]1CCCN1C(=O)[C@H](Cc1ccccc1)NC(=O)[C@@H]1CCCN1C(=O)[C@H](Cc1c[nH]cn1)NC(=O)[C@@H](N)Cc1ccccc1)C(=O)O` — result for “elimination rate constant”: 0.11 ± 0.03 min⁻¹ (Sprague-Dawley rat male, plasma; intravenous, 10 mg/kg).
`NC[C@@H](C(=O)Nc1ccc(-c2cn[nH]c2)cc1)c1ccccc1` — result for “total eye irritation score”: 0 (OECD 405 eye irritation; New Zealand White rabbit, eye; topical, 0.1%, 56 h (day 3); direction not given).
`N#Cc1cnc2cc(OCC3CCNCC3)c(F)cc2c1Nc1cc(F)c(OCc2cccc(Cl)n2)cc1Cl` has a bioavailability of 37% (male beagle dog, plasma; oral, 5 mg/kg).
The elimination half-life of `N=C(N)NCCC[C@@H]1NC(=O)[C@H](Cc2c[nH]c3ccccc23)NC(=O)[C@@H](CC2CCCCC2)NC(=O)[C@@H]2CCCN2C(=O)[C@@H](NC(=O)CCc2ccccc2)CCCNC1=O` is reported as 34.8 min (C57BL/6J mice, spinal cord; subcutaneous, 1 mg/kg).
Under “patients with treatment-related adverse event”, `CC(C)c1cnc(-c2cc(Cl)ccc2F)cc1Nc1ccncc1C(=O)NC(CO)CO` is recorded as 0% (monotherapy, item: blood alkaline phosphatase increased; human patients; oral, dose not given, grade 3, phase I A).
`COc1ccc2c(c1)c(CC(=O)Nc1nnc(CCCCc3ccc(NC(=O)Cc4cccc(OC(F)(F)F)c4)nn3)[se]1)cn2C` gave a remaining compound of 75 ± 1.1% (ICR mouse, whole blood, heparinized; 0.091 mg/mL, 2 h, 37 °C).
`NC12CNCCNCC(NCc3ccc(CNC(=O)CCCC(=O)NCc4ccc(-c5nncnn5)cc4)cc3)(CNCCNC1)CNCCNC2.[64Cu+2]` — result for “mean absorbed dose”: 0.0348 rad/mCi (OLINDA dosimetry; testes; 24 h pretargeting interval, with: huA33-TCO pretargeting).
Under “blood urea nitrogen”, `O=C(O)C1OC(OC2C(COS(=O)(=O)O)OC(OC3C(C(=O)O)OC(OC4C(COS(=O)(=O)O)OC(OC5C(C(=O)O)OC(OC6C(COS(=O)(=O)O)OC(OC7C(C(=O)O)OC(OC8C(COS(=O)(=O)O)OC(OC9C(C(=O)O)OC(OC%10C(COS(=O)(=O)O)OC(OC%11C(C(=O)O)OC(Oc%12ccc([N+](=O)[O-])cc%12)C(O)C%11O)C(NS(=O)(=O)O)C%10O)C(OS(=O)(=O)O)C9O)C(NS(=O)(=O)O)C8O)C(OS(=O)(=O)O)C7O)C(NS(=O)(=O)O)C6O)C(OS(=O)(=O)O)C5O)C(NS(=O)(=O)O)C4O)C(OS(=O)(=O)O)C3O)C(NS(=O)(=O)O)C2OS(=O)(=O)O)C(O)C(O)C1OC1OC(COS(=O)(=O)O)C(O)C(O)C1NS(=O)(=O)O` (stereo not drawn) is recorded as 17.8 ± 2.4 mg/dL (rats, serum; intravenous, 3600 µg/kg/day for 7 days, day 8).
`CCCC[C@H](NC(C)=O)C(=O)N[C@H]1CC(=O)NCCCC[C@@H](C(=O)N[C@@H](C(=O)N2CCC[C@@H]2C(N)=O)C(C)C)NC(=O)[C@H](Cc2c[nH]c3ccccc23)NC(=O)[C@H](CCCN=C(N)N)NC(=O)[C@@H](Cc2ccc3ccccc3c2)NC(=O)[C@@H]2CCCN2C1=O` gave a plasma histamine of 20.8 ng/mL (healthy dogs, plasma; subcutaneous, 2.25 mg/kg per day, day 28, 30 min post-dose, median).
For `Polymyxin B`, “fraction in filtrate” read 54% (ultrafiltration ELISA; 0.9% NaCl solution; 1 µg/mL, 30 kDa MMCO filter; baseline: positive control).
For `CC/C=C\C/C=C\C/C=C\C/C=C\C/C=C\CCCCOC(CC)C(=O)O` (stereo not drawn), the tissue concentration was 134 µg/g (14C radiolabel; Wistar rats male, liver; oral, 100 mg/kg, 2 h).
For `CC(C)(Sc1cc[n+]([O-])cc1-c1ccc(C#N)c2ccccc12)C(=O)OC1OC(C(=O)O)C(O)C(O)C1O` (stereo not drawn), “renal clearance ratio (0-72 h)” read 39.5% (adult men, urine; oral, 15 mg verinurad, moderate renal impairment; baseline: impaired over normal renal function).
With `CC(C)C[C@@H]1NC(=O)CNC(=O)[C@H](CC(N)=O)NC(=O)[C@H](CCCNC(=N)N)NC(=O)[C@H]([C@@H](C)O)NC(=O)[C@@H]2CSSC[C@@H]3NC(=O)[C@H]([C@@H](C)O)NC(=O)CNC(=O)CNC(=O)[C@H](C(C)C)NC(=O)[C@@H]4CSSC[C@H](NC(=O)[C@H]([C@@H](C)O)NC(=O)[C@H](CSSC[C@H](NC(=O)[C@H](C(C)C)NC(=O)[C@@H]5CCCN5C1=O)C(=O)NCC(=O)N[C@@H](CCC(=O)O)C(=O)N[C@@H]([C@@H](C)O)C(=O)N4)NC(=O)CNC(=O)[C@@H]1CCCN1C(=O)[C@H]([C@@H](C)O)NC(=O)[C@H](CC(N)=O)NC3=O)C(=O)N[C@@H](CO)C(=O)N[C@@H](Cc1c[nH]c3ccccc13)C(=O)N1CCC[C@H]1C(=O)N[C@@H](C(C)C)C(=O)N2` the fraction unbound was 0.25 ± 0.08 (equilibrium dialysis; rat, plasma; 1 µM, 24 h).
The intestine uptake of `CN(C)c1ccc(-c2nc3ccc(OCCCCCN4CCN5CCN(CC4)CC(=O)[O][Al]([18F])[O]C(=O)C5)cc3s2)cc1` is reported as 8.59 ± 2 % injected dose/organ (ICR mouse; intravenous, dose not given, 10 min).
With `O=C([O-])CN1CCN(CC(=O)[O-])CCN(CC(=O)NC[C@H]2CC[C@H](C(=O)N[C@H](Cc3cnc4ccccc4c3)C(=O)NCCCC[C@H](NC(=O)N[C@@H](CCC(=O)O)C(=O)O)C(=O)O)CC2)CCN(CC(=O)[O-])CC1.[64Cu+2]` the absorbed dose was 0.0111 mGy/MBq (PET/CT dosimetry OLINDA/EXM; healthy volunteers, thymus; up to 24 h post-injection).
With `COc1cc2c(cc1OC)CN(CCCCn1ccc3cc(OCC[18F])ccc31)C2` the brain/blood ratio was 1.16 ± 0.16 (ICR mice, male; intravenous, 60 min).
The plasma concentration of `CCC1CC2C(C)=CC3C(=O)CCCC3C=CC(C)=CC2C(=O)O1` (stereo not drawn) is reported as 2.4 ± 2.5 ng/mL (ICR mouse (male), plasma; oral, 30 mg/kg, 120 min).
Under “metabolite peak area”, `CCCC(CCC)NC(=O)c1ccc(O)c(O)c1` is recorded as 7.8% (LC-MS; human liver microsomes; 10 µM of parent drug, 20 min, pH 7.4, with: NADPH; baseline: parent drug at time zero).
`CC(C)[C@H](NC(=O)CNC(=O)[C@H](CCC(N)=O)NC(=O)[C@H](C)N)C(=O)O` — result for “time to concentration below LOQ”: 20 min (human; 3 mg/kg single dose, LOQ 0.5 ng/mL).
For `NS(=O)(=O)c1ccc(-n2nc(C(F)(F)F)cc2-c2ccc(F)cc2F)cc1`, “metabolite formation rate” read 2.4 pmol/min/mg (substrate; male beagle dog liver microsomes; 20 µM, pH 7.4, mean of 0-90 and 0-60 min).
`CNC(=O)C1CCN(c2ccccc2NC(=O)c2ccc(-c3c(C)ccc4[nH]ncc34)c(C)c2)CC1` gave a half-life of less than 10 min (metabolic stability; mouse, liver microsomes; 2 µM).
`O=C(Nc1ccc(-c2noc(C3CC3)n2)c(Cl)c1)c1cccs1` has a thermodynamic solubility of 130 ± 19.1 µg/mL (≈ 376 µM) (sodium acetate buffer; 24 h, pH 4.0, room temperature).
`CN(C)C(=O)c1ccnc(N2Cc3cn(Cc4ccc(F)cc4F)nc3C2)n1` — result for “effect size d”: 0.03 (novel object recognition, item: discrimination index; wild-type mice; oral, 5 mg/kg daily, from 1 week before test, unit not given; baseline: vehicle).
`COC(=O)/C=C/C(=O)c1ccc(OC)cc1` gave a recovery of 92.9 ± 3.87% (LC-MS/MS; rat plasma; 2.5 ng/mL, time not given, 3 freeze-thaw cycles).

Some of these lines once more:
Under “patients with treatment-related adverse event”, `CC(C)c1cnc(-c2cc(Cl)ccc2F)cc1Nc1ccncc1C(=O)NC(CO)CO` is recorded as 0% (monotherapy, item: blood alkaline phosphatase increased; human patients; oral, dose not given, grade 3, phase I A).
`COc1ccc2c(c1)c(CC(=O)Nc1nnc(CCCCc3ccc(NC(=O)Cc4cccc(OC(F)(F)F)c4)nn3)[se]1)cn2C` gave a remaining compound of 75 ± 1.1% (ICR mouse, whole blood, heparinized; 0.091 mg/mL, 2 h, 37 °C).
`NC12CNCCNCC(NCc3ccc(CNC(=O)CCCC(=O)NCc4ccc(-c5nncnn5)cc4)cc3)(CNCCNC1)CNCCNC2.[64Cu+2]` — result for “mean absorbed dose”: 0.0348 rad/mCi (OLINDA dosimetry; testes; 24 h pretargeting interval, with: huA33-TCO pretargeting).
